Assay results pooled from the literature.
A part holds a random share of what one study measured. Changes are numbered by the printed parent chain.

Set 1 — method: RNA Bind-n-Seq; molecule type: RNA; sample: in vitro; tested at: 200 nM; notes: whole 134-nt RNA, ends assumed; added: 150 mM KCl; baseline: input library; direction: higher = stronger binding
Target: Fragile X messenger ribonucleoprotein 1, C-terminal low-complexity region (Fmr1, Mus musculus, UniProt P35922)
`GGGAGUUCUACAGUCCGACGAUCAGUCCUGUGCUACACAUCGUAUGUACCGAAUCGGGGAAAAGGGGAAAAGGAAAAGGGGAAAGUAUUAUGUUACGCCGUUCGGAUCUGCACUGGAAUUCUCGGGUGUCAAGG` gave a log2 enrichment of 0.274.
With `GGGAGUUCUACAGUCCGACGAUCACCAUGCAGGUGGGCGUCUUUGGGAAGUGGGGCAAGGGGGGGAUAGGGAGGGGGGUAACACUUUGGGAACAGGUGGUCCCAGGUCGUUUCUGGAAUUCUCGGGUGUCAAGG` the log2 enrichment was 0.607.
`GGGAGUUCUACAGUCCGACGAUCUAACUUUAAAGGAGGAUCUGAUGGAUAUGGCAGUGGACGUGGAUUUGGGGAUGGCUAUAAUGGGUAUGGAGGAGGACCUGGAGGUGGCAAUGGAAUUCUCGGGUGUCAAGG` gave a log2 enrichment of 0.28.
With `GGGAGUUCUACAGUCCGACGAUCCCUCAAGUCCUGUGCUACACAUCGUAUGUACCGAAUCGGGGUGGUGGGUGGGAAAGUAUUAUGUUACGCCGUUCGGAUCUGCACUUCCAGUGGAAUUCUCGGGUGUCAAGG` the log2 enrichment was 1.4.
`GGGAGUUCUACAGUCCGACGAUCCAACGUUGAAAUGGAUUGGGUGUUGAAGCAUACUGGUCCAAAUAGUCCUGACACGGCCAAUGAUGGCUUUGUACGGCUUAGAGGACUUCCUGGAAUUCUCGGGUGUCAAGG` has a log2 enrichment of -1.73.
`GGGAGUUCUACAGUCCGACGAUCUGUCUGCGGACCUGGUUUCAGCGCUGGUGGGACUGCAGCCGGAGGUCAGCCCAGCAGAGACUGCAGCUGGAGAGGGCAGUGCAACACCACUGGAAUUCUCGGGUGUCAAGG` has a log2 enrichment of -0.991.
For `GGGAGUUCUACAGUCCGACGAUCUAAUUUAGAUCUUAAAGAAAAAGUGGAGCCUGAGGUUCUCAGCACUGAUACCCAAACUUCCCCAGAGCCAGGCACAAGGAUGAACAUUCUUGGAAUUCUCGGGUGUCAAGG`, the log2 enrichment was -0.512.
`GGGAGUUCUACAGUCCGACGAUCCUCAAGUCCUGUGCUACACAUCGUAUGUACCGAAUCGGUUGGUUGGGGUUGGGAAAGUAUUAUGUUACGCCGUUCGGAUCUGCACUUCCAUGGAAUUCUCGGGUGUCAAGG` has a log2 enrichment of 0.181.

Set 2 — method: RNA Bind-n-Seq; molecule type: RNA; sample: in vitro; tested at: 365 nM; baseline: no-protein control; direction: higher = stronger binding
Target: RNA binding protein fox-1 homolog 2, RRM domain, GST-SBP tag (RBFOX2, Homo sapiens, UniProt O43251-10, residues 100-194)
Notes: natural RNA segment, single round, ends assumed
Target sequence (chain): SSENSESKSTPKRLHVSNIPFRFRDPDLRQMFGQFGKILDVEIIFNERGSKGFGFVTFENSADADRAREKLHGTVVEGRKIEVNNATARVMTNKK
`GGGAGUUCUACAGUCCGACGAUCAUAGAUCUUCUGUGUCGUUGCAUGGAAGGGAAGACUUUGUAUAACACGCAUCAACACAUCCUCCCCAAAUCUCAAGCAAUAGACAGAAAUCUCAGUAGACUAAACUCCAGUGGAAUUCUCGGGUGCCAA` — result for “RBNS enrichment (R)”: 0.575.
Under “RBNS enrichment (R)”, `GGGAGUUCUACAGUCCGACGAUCCCCAGGACUCUAAAUUAUUGGGGUAAAAAACAGCCUUGCAAGAAAAAGGGGAGCUAUUUUUGCUUUUUAUGUUUUUUAUUGUUAAACUUGUAUCCCUUUAAAAACUGAAGUGGAAUUCUCGGGUGCCAA` is recorded as 0.903.
`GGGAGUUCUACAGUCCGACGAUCAUAGUGUCACCUGUGUAAAUCAAAUCAAAAUAGCCUUCCCUAUUAUUUAUGAACCCAUGGGAGACUUUAAACUCUUGUAGAUAGAUGCUAAAUGCCCAGGCCCACUUAACUGGAAUUCUCGGGUGCCAA` — result for “RBNS enrichment (R)”: 0.369.
`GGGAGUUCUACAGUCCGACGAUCGUCUUCGUUUACGUCUCUGUCCACAUGUCAGUGUAUUAAAACCCCAAUGGGUUCCGUUUCUCCUUUUCCCCUCUGGAUUUUAAAUAAAUAUUUAAAACUGAGGCAAUGGAUGGAAUUCUCGGGUGCCAA` — result for “RBNS enrichment (R)”: 0.49.
For `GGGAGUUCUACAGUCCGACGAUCGGGAGGUCUAAUCUAGAUAUCGACUUGUUUUUGCACAUGUUUCCUCUAGUUCUUUGUUCAUAGCCCAGUAGACCUUGUUACUUCUGAGGUAAGUUAAGUAAGUUGAUUCGUGGAAUUCUCGGGUGCCAA`, “RBNS enrichment (R)” read 0.678.
Under “RBNS enrichment (R)”, `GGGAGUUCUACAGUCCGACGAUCCUUCCUUGCGCAUUGUCAGCAUUUCUGAGUGAUUCACAGUGAUGUUUUAUGAUGGUUAGACUUCUGGACAUGGACUCAUCUUGUGAGAAGAUUUGAAUAAUGACCAAUUCUGGAAUUCUCGGGUGCCAA` is recorded as 0.572.
For `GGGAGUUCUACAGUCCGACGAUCAGUUGUCAAGGUGUAAGCCUCACUGUAAGUUACAAAGCUACCACUCCCCUCUUUAAGAACACAUAGCUUAGGAUUGCCUUGGCGAUGUGGGCUCUUUUUUGGUUCCAUAUUGGAAUUCUCGGGUGCCAA`, “RBNS enrichment (R)” read 0.177.
`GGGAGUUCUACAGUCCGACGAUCUCCUAAUAGUCCUUCAGUGCAUUUUAGUCUGUCUCCAACUGGACACCAGUAGGUAGUGUCAAGCCAGAGAUUCGGGGCAGUAGAUAAAUGUUCAUUUUACUGAUGCACUUUGGAAUUCUCGGGUGCCAA` — result for “RBNS enrichment (R)”: 0.457.

Set 3 — method: protein-binding microarray; molecule type: hairpin DNA; sample: in vitro; tested at: not given; baseline: not given; direction: higher = stronger binding
Target: FOXO3, forkhead domain (mouse, UniProt Q9WVH4, residues 31-263)
UniProt Q9WVH4, sequence (31-263, looked up): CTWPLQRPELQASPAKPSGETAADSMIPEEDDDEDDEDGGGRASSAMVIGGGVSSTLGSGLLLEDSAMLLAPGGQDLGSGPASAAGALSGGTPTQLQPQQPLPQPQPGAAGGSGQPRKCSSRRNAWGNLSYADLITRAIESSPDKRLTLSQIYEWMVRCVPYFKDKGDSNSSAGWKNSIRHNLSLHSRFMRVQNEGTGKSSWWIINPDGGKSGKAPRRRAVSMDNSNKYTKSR
Notes: whole hairpin DNA, median over replicate spots
For `GAGGCCATCTAACCAACGCCTCCTGGCGTTGGTTAGATGGCCTCACACTC`, the median fluorescence was 3850 a.u.
The median fluorescence of `GAGGCCATGTAACCAGCGCCTCCTGGCGCTGGTTACATGGCCTCACACTC (5mC at 29)` is reported as 4440 a.u.
`GAGGCCCTGCAAACAACGCCTCCTGGCGTTGTTTGCAGGGCCTCACACTC (5mC at 7)` gave a median fluorescence of 4940 a.u.
With `GAGGCCCGGCAAACAACGCCTCCTGGCGTTGTTTGCCGGGCCTCACACTC (5mC at 7 37)` the median fluorescence was 5470 a.u.
`GAGGCCATGTAGACAACGCCTCCTGGCGTTGTCTACATGGCCTCACACTC` has a median fluorescence of 4120 a.u.
The median fluorescence of `GAGGCCATGTAAAAAACGCCTCCTGGCGTTTTTTACATGGCCTCACACTC` is reported as 3460 a.u.
`GAGGCCATGCAACGAACGCCTCCTGGCGTTCGTTGCATGGCCTCACACTC (5mC at 31)` gave a median fluorescence of 4460 a.u.
For `GAGGCCGTGTAAACAACGCCTCCTGGCGTTGTTTACACGGCCTCACACTC`, the median fluorescence was 5240 a.u.

Other studies, line by line
Parent: viral docking peptide; KGVKRKLFAEDSS; partner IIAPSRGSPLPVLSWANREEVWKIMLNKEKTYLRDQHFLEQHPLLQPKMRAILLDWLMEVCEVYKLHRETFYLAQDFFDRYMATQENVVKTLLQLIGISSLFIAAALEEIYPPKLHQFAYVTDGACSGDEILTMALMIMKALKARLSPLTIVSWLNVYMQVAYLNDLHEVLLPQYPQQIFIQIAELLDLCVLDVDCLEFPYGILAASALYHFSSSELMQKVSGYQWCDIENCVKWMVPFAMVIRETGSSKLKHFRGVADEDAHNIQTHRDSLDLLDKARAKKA
For `E10F`, “normalised enrichment score” read 6.19 (CCNE1, cyclin fold, Cln2 fusion (human); yeast growth competition, sequencing; yeast; strong parent motif; baseline: not given, higher = stronger binding).

A few entries again (set 3):
`GAGGCCATGCAACGAACGCCTCCTGGCGTTCGTTGCATGGCCTCACACTC (5mC at 31)` gave a median fluorescence of 4460 a.u.
The median fluorescence of `GAGGCCATGTAACCAGCGCCTCCTGGCGCTGGTTACATGGCCTCACACTC (5mC at 29)` is reported as 4440 a.u.
`GAGGCCATGTAGACAACGCCTCCTGGCGTTGTCTACATGGCCTCACACTC` has a median fluorescence of 4120 a.u.
